Measured values gathered from unrelated publications.
Values joined by “and” are separate records of one study, mostly repeats; a detail may differ. Numbers after ± are the reported error.

With `CC(=O)NCSC[C@H](NC(=O)[C@@H]1CCCN1C(=O)[C@H](C)NC(=O)[C@@H](NC(=O)CNC(=O)[C@@H](NC(=O)[C@H](Cc1c[nH]c2ccccc12)NC(=O)[C@H](C)NC(=O)CNC(=O)[C@H](CO)NC(=O)[C@H](C)NC(=O)[C@@H]1CCCN1C(=O)[C@H](Cc1c[nH]c2ccccc12)NC(=O)[C@H](C)NC(=O)[C@H](C)NC(=O)[C@@H](N)Cc1ccc(O)cc1)[C@@H](C)O)[C@@H](C)O)C(=O)N[C@@H](CO)C(=O)N[C@@H](C)C(=O)NCC(=O)N[C@H](C(=O)NCCOCCOCCOCCOCCOCCOCCOCCOCCOCCOCCOCCOCCC(=O)N[C@@H](CS)C(N)=O)[C@@H](C)O` the selectivity ratio was 11 ± 5.8 (H2126 lung adenocarcinoma; cell binding, phage binding, measured: output/input phage; 10 min, 37 °C; reference: control phage).
`O=C(O)c1ccc(-c2nc(-c3ccccc3Cl)c3sccn23)cc1`: “S phase cells” 26.7% and 25.9% and 27% (HEL; flow cytometry; concentration not given; reference: cells).
With `CC(C)C12OC1C1OC13C1(C)CCC4=C(COC4=O)C1CC1OC13C2OC(=O)CCC(=O)OC1OC(CO)C(O)C(O)C1O` (stereo not shown) the IC50 was 1.42 µM (Detroit 562; cell growth or viability, XTT; 47 h).
Under “mean growth percent”, `O=C(C[Se]C(=O)c1ccco1)Nc1cccc(C(F)(F)F)c1` is recorded as -33.1% (NCI60 melanoma subpanel; cell growth; 10 µM, 48 h, one-dose).
`NC(=O)N/N=C/c1ccc(OCc2ccccc2)cc1` — result for “catalase activity (OD450)”: 0.31 a.u. (IMR-32; 400 µg/mL, 24 h; higher = more activity).
For `CC(C)(C)C(=O)OCOP(=O)(OCOC(=O)C(C)(C)C)C1CCCN(O)C1=O` (stereo not shown), the GI50 was 0.673 µM (NCI-H322M).
For `C=CC12CN(C)C3C4COC(CC41)C1(C(=O)N(OC)c4ccccc41)C32` (stereo not shown), viability read “no effect” (HT-22; CCK-8; up to 100 µM, 24 h).
For `CC[C@H](C)[C@H](NC(=O)[C@H](C)NC(=O)CNC(=O)[C@H](Cc1ccccc1)NC(=O)[C@H](CC(N)=O)NC(=O)[C@H](CC(N)=O)NC(=O)[C@H](CO[C@@H]1O[C@H](CO)[C@@H](O)[C@H](O)[C@H]1NC(C)=O)NC(=O)[C@H](CO)NC(=O)[C@H](Cc1c[nH]cn1)NC(=O)[C@@H](NC(=O)[C@H](CC(C)C)NC(=O)[C@H](Cc1ccccc1)NC(=O)[C@H](CC(N)=O)NC(=O)[C@H](C)NC(=O)[C@@H](N)CC(C)C)C(C)C)C(=O)N[C@@H](CC(C)C)C(N)=O`, the viability was 73% (INS-1; MTT; 5 equivalents to hIAPP, 24 h, added: hIAPP 1 µM).
With `CC(C)C[C@H](NC(=O)[C@H](CC(=O)O)NC(=O)CNC(=O)[C@@H](N)CCCNC(=N)N)C(=O)N[C@@H](C)C(=O)N[C@H](C(=O)N[C@@H](CC(C)C)C(=O)N[C@@H](CCCNC(=N)N)C(=O)N[C@@H](CCC(N)=O)C(=O)N[C@@H](CC(C)C)C(=O)N[C@@H](C)C(=O)N[C@@H](CCC(N)=O)C(=O)N[C@@H](CCC(=O)O)C(=O)N[C@@H](CC(=O)O)C(=O)NCC(=O)N[C@H](C(=O)N[C@H](C(=O)NCC(=O)N[C@H](C(=O)N[C@@H](CCCNC(=N)N)C(=O)NCCOCCOCCOCCOCCOCCOCCOCCOCCOCCOCCOCCOCCC(=O)N[C@@H](CS)C(N)=O)C(C)C)C(C)C)C(C)C)[C@@H](C)O` the selectivity ratio was 7.7 ± 4.9 (SKOV3 ovarian cancer; cell binding, phage binding, measured: output/input phage; 10 min, 37 °C; reference: control phage).
`CC1CCC2C(C)C(OC(=O)CCC(=O)N3CCC(Nc4ccc(S(=O)(=O)NC(=O)c5ccc(N6CCN(CC7=C(c8ccc(Cl)cc8)CC(C)(C)CC7)CC6)cc5Oc5cnc6[nH]ccc6c5)cc4[N+](=O)[O-])CC3)OC3OC4(C)CCC1C32OO4` (stereo not shown) has a viable cells of 29.5% (THP-1; annexin V/PI flow cytometry, measured: annexin V-/PI-; 0.8 µM, 24 h).
With `O=C(C[Se]C(=O)c1cccs1)Nc1cccc(C(F)(F)F)c1` the GI50 was 1.63 µM (NCI60 melanoma subpanel; cell growth, inhibitor; five-dose).
`CC(C)[C@H](NC(=O)[C@H](CCCNC(=N)N)NC(=O)[C@@H]1CCCN1C(=O)[C@@H](NC(=O)[C@H](C)NC(=O)[C@H](Cc1ccc(O)cc1)NC(=O)[C@H](CCC(N)=O)NC(=O)[C@H](CCCCN)NC(=O)[C@H](CCCNC(=N)N)NC(=O)[C@@H]1CCCN1C(=O)[C@H](CCC(=O)O)NC(=O)[C@@H](NC(=O)[C@H](C)N)[C@@H](C)O)[C@@H](C)O)C(=O)N[C@@H](Cc1ccccc1)C(=O)N[C@@H](Cc1c[nH]c2ccccc12)C(=O)N[C@H](C(=O)N[C@@H](CC(=O)O)C(=O)N[C@@H](C)C(=O)N1CCC[C@H]1C(=O)NCC(=O)NCCOCCOCCOCCOCCOCCOCCOCCOCCOCCOCCOCCOCCC(=O)N[C@@H](CS)C(N)=O)[C@@H](C)O` gave a selectivity ratio of 0.66 ± 0.22 (HCC95; phage binding; reference: targeting over control phage).
The GI50 of `O=C(C[Se]C(=O)c1ccccc1)Nc1cccc(C(F)(F)F)c1` is reported as 2.22 µM (NCI60 melanoma subpanel; cell growth, inhibitor; five-dose).
With `Cc1cc(Oc2nc(N3CC[C@@H](c4ccncc4)C3)ncc2F)[nH]n1` the IC50 was 60.3 µM (SK-BR-3; cell growth or viability).
For `CC(C)CC(O)(CC(C)C)c1cn(C(=O)N2CCCC2)nn1`, the protein level was 1.24 and 1.08 and 0.94 (mouse T-cells; SILAC proteomics, measured: Larp1; 1 nM, 6 h, single peptides, unit not given; reference: DMSO).
Under “glutathione peroxidase activity (OD450)”, `CNC(=S)N/N=C/c1ccc(OCc2ccccc2)cc1` is recorded as 0.029 a.u. (IMR-32; measured: GPX3; 100 µg/mL, 24 h; higher = more activity).
